Assay results gathered from unrelated publications.
Each numbered part is a random draw from the data of one study; scales do not carry over between parts. Values joined by “and” are separate records of one study, mostly repeats; a detail may differ.
UniProt Q9UHD2, sequence (whole entry, looked up): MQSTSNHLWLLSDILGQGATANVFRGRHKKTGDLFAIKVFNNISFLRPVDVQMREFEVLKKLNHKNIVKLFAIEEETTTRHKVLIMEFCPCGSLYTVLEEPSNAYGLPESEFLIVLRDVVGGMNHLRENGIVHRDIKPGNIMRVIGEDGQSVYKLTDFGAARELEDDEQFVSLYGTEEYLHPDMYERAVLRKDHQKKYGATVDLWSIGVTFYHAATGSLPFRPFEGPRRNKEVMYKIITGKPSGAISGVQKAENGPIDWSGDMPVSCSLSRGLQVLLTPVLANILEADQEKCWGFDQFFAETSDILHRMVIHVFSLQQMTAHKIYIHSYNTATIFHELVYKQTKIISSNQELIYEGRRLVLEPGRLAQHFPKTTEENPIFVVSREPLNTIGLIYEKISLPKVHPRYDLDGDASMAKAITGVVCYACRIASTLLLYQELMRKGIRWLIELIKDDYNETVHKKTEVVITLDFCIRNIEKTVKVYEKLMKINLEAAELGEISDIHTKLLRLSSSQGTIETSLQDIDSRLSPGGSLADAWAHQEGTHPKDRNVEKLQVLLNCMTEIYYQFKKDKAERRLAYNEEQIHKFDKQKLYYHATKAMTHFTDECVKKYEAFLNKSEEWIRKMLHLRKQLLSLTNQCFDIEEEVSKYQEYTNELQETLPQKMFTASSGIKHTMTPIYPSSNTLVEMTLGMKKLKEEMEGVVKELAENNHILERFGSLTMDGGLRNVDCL
UniProt P54753, sequence (whole entry, looked up): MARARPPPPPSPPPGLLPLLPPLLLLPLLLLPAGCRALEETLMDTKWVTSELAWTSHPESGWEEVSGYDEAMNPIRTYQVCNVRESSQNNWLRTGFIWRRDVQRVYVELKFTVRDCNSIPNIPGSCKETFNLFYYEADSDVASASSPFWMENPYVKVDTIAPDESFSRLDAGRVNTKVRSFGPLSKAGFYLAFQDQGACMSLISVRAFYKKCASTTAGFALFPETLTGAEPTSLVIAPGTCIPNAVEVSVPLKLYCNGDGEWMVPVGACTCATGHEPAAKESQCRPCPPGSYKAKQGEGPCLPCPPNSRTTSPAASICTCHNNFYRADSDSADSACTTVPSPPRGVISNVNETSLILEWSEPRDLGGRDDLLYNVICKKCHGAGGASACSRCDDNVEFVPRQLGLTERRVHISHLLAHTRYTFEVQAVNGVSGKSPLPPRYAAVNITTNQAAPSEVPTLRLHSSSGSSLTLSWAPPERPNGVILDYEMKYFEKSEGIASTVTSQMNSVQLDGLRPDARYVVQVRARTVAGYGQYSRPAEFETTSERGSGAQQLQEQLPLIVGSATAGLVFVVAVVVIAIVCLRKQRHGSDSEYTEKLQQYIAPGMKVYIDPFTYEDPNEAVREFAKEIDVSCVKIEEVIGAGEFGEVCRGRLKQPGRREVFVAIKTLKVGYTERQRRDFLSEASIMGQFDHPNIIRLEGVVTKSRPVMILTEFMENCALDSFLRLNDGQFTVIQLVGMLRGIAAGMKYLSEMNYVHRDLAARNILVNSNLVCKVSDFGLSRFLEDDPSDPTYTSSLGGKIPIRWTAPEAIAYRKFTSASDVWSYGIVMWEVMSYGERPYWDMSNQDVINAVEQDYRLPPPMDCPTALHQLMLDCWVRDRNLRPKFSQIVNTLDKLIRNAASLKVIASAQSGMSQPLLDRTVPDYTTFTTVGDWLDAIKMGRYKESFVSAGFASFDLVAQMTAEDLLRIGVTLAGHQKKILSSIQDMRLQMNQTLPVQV

Set 1
Target: Glycogen synthase kinase-3 alpha (GSK3A, Homo sapiens, UniProt P49840)
UniProt P49840, sequence (whole entry, looked up): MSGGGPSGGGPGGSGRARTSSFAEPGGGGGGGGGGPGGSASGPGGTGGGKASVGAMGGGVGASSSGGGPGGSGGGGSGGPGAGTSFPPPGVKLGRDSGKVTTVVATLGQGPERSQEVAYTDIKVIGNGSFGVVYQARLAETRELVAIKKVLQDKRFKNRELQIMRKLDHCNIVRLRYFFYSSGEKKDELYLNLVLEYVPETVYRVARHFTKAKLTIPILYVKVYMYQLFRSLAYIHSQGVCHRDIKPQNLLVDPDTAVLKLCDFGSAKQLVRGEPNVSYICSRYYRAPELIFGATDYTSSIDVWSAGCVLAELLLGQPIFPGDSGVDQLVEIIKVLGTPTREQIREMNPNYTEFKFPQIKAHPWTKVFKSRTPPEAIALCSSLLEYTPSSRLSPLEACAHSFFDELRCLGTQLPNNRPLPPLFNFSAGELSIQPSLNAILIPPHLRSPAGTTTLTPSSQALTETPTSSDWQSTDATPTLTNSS
Read-out: enzyme activity
Action: inhibitor
Tested at: 0.5 µM
Reference: control
Endpoint: remaining activity
Nc1ncnc2n[nH]c(Nc3ccc(F)cc3)c12: 88.6%
Cc1nc(-c2ccccc2)c(-c2ccncc2)o1: 112%
CN(C)c1ccc(C=C2C(=O)Nc3ccccc32)cc1: 104%
Cc1cccc(-c2[nH]c(C(C)(C)C)nc2-c2ccc3c(c2)OCO3)n1: 93%
Cc1ccc(Nc2nccc(N(C)c3ccc4c(C)n(C)nc4c3)n2)cc1S(N)(=O)=O: 101%
CO[C@H]1C[C@@H]2CC[C@@H](C)[C@@](O)(O2)C(=O)C(=O)N2CCCC[C@H]2C(=O)O[C@H]([C@H](C)C[C@@H]2CC[C@@H](O)[C@H](OC)C2)CC(=O)[C@H](C)/C=C(\C)[C@@H](O)[C@@H](OC)C(=O)[C@H](C)C[C@H](C)/C=C/C=C/C=C/1C: 106%
O=C1NC(=O)C(c2cn(CCCO)c3ncccc23)=C1c1cnccn1: 8.56%

Set 2
Target: DNA polymerase theta, ATPase domain (POLQ, Homo sapiens, UniProt O75417)
UniProt O75417, sequence (whole entry, unmodified, looked up): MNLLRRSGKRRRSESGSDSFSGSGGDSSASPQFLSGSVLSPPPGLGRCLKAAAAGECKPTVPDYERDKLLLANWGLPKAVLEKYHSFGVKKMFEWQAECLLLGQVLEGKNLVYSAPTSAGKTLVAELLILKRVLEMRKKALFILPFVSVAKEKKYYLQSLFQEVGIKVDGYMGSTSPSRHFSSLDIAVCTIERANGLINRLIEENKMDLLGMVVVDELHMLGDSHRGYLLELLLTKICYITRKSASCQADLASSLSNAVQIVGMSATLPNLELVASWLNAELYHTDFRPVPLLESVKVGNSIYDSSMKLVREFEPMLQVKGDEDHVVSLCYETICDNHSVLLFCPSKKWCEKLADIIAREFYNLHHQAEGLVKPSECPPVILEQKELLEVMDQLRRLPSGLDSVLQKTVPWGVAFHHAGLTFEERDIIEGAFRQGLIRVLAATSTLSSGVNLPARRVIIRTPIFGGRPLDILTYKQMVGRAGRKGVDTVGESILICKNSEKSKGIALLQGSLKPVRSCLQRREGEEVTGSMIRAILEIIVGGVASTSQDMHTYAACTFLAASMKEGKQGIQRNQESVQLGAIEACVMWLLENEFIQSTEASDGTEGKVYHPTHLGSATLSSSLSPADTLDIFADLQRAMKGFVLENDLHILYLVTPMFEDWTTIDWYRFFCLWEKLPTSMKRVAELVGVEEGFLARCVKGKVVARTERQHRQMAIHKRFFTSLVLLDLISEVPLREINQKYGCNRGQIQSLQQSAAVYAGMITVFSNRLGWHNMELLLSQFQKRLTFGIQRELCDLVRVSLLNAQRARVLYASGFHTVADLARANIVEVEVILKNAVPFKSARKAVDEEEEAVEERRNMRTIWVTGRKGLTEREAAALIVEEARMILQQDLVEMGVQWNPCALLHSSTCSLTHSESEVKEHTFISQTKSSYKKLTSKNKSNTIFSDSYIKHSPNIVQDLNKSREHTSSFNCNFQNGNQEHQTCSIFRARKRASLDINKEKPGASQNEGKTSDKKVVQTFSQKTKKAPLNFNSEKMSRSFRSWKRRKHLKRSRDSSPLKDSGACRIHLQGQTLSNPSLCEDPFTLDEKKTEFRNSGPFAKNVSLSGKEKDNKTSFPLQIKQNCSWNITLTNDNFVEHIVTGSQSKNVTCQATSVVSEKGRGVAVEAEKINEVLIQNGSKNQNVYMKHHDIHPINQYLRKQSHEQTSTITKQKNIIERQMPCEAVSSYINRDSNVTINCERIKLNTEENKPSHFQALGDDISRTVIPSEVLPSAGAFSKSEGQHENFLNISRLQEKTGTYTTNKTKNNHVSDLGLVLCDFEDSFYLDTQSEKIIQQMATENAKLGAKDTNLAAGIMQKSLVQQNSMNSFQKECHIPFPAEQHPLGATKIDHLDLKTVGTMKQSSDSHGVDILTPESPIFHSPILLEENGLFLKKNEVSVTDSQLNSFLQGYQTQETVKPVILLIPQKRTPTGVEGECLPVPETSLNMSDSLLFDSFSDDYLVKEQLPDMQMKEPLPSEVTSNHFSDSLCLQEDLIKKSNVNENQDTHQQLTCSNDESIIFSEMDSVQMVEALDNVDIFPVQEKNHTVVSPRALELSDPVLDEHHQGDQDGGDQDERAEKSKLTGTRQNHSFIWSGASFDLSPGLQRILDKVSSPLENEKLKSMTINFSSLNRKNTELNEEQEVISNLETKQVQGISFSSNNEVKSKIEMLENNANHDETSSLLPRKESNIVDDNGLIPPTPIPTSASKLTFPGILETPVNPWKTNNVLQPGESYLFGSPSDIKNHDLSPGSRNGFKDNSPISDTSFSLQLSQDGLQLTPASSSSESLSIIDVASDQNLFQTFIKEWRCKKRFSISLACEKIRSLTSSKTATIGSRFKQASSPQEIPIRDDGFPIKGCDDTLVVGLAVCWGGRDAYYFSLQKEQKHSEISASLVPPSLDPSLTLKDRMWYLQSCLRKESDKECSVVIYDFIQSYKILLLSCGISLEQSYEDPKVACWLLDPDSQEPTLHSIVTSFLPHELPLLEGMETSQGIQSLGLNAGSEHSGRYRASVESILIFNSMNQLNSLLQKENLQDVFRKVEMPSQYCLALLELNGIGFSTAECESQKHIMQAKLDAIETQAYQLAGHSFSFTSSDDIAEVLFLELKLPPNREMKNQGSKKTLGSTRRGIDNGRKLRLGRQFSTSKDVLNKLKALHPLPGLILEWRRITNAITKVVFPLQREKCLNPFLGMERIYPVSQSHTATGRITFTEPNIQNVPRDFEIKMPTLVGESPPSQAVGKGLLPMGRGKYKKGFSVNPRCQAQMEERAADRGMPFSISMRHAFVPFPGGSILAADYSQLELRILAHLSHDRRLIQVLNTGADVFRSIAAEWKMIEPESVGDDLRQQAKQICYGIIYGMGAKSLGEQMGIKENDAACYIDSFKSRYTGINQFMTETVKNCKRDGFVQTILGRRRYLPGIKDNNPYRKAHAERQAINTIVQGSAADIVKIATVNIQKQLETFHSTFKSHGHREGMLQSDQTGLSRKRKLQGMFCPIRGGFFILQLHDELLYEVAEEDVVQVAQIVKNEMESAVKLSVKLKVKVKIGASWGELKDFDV
Read-out: enzyme activity
Action: inhibitor
Tested at: 77 µM
Reference: untreated
Endpoint: remaining activity
COc1cc(Nc2ncc(F)c(Nc3ccc4c(n3)NC(=O)C(C)(C)O4)n2)cc(OC)c1OC: 99.9%
CCCCC[C@H](CC(=O)NO)C(=O)N[C@H](C(=O)N1CCC[C@H]1CO)C(C)C: 102%
C#C[C@]1(OC(C)=O)CC[C@H]2[C@@H]3CCC4=C[C@@H](OC(C)=O)CC[C@@H]4[C@H]3CC[C@@]21C: 101% and 100%
Nc1ncnc2c1c(I)cn2[C@@H]1O[C@H](CO)[C@@H](O)[C@H]1O: 94.1%
Nc1nc(N)c2nc(-c3cccc(O)c3)c(-c3cccc(O)c3)nc2n1: 119%
O=C1/C(=C/c2cccs2)CC/C1=C\c1cccs1: 97.7%

Set 3
SMILES: O=C(N[C@H]1CCCCC/C=C\C2C[C@@]2(C(=O)O)NC(=O)[C@@H]2C[C@@H](Oc3ccncc3)CN2C1=O)OC1CCCC1 (some centres unmarked)
Technique: competition with immobilised ligand
Tested at: 1 µM
Endpoint: remaining binding
Ephrin type-B receptor 3 (EPHB3, Homo sapiens, UniProt P54753); cell-free assay: 100%
Serine/threonine-protein kinase TBK1 (TBK1, Homo sapiens, UniProt Q9UHD2); binding: 100%
Tyrosine-protein kinase ABL1, phosphorylated (ABL1, Homo sapiens, UniProt P00519, Y253F); binding: 100%
Receptor-interacting serine/threonine-protein kinase 4 (RIPK4, Homo sapiens, UniProt P57078); binding: 94%
Rhodopsin kinase GRK1 (GRK1, Homo sapiens, UniProt Q15835); binding: 100%

Set 4
Cell line: A-375
Tested at: 100 µM
Time: 36 h
Endpoint: viability
CO/N=C(\C(=O)N[C@@H]1C(=O)N2C(C(=O)O)=C(CSc3nc(=O)c(=O)[nH]n3C)CS[C@H]12)c1csc(N)n1: 110%
CCCCCCCCCCCCCCCC[N+](C)(C)CCN(Cc1ccc(OC)cc1)c1ncccn1: 1.88%
COc1ccc(-c2cc(=O)c3c(O)cc(O[C@@H]4O[C@H](CO[C@@H]5O[C@@H](C)[C@H](O)[C@@H](O)[C@H]5O)[C@@H](O)[C@H](O)[C@H]4O)cc3o2)cc1O: 114%
Nc1c(CC(=O)O)cccc1C(=O)c1ccccc1: 103%
COc1cc(/C=C/C(=O)N2CCN(CC(=O)N3CCCC3)CC2)cc(OC)c1OC: 116%

For quick reference, copied from above (set 1):
Cc1cccc(-c2[nH]c(C(C)(C)C)nc2-c2ccc3c(c2)OCO3)n1: 93%
Cc1nc(-c2ccccc2)c(-c2ccncc2)o1: 112%
Nc1ncnc2n[nH]c(Nc3ccc(F)cc3)c12: 88.6%
